# Published values collected from several papers.
# Lines come from different studies, so protocols differ. ± marks the error that the study gave.
Structure (SMILES),test,test system,conditions,Tmax
O=C(/C=C/c1ccc(O)c(O)c1)O[C@H](Cc1ccc(O)c(O)c1)C(=O)O,UPLC-MS/MS,"Wistar rat, microcirculation dysfunction model, plasma","oral, 100 mg/kg Salvia miltiorrhiza stem-leaf extract FT",0.42 ± 0.33 h
CC(C)=CCC[C@](C)(O[C@@H]1O[C@H](CO)[C@@H](O)[C@H](O)[C@H]1O)[C@H]1CC[C@]2(C)[C@@H]1[C@H](O)C[C@@H]1[C@@]3(C)CC[C@H](O)C(C)(C)[C@@H]3[C@@H](O[C@@H]3O[C@H](CO)[C@@H](O)[C@H](O)[C@H]3O)C[C@]12C,,"Sprague Dawley rat, male, plasma","oral, 25 mg/kg, mixture of pure ginsenosides",0.08 ± 0.02 h
CCc1oc2cc(OC)ccc2c1C(=O)c1cc(Br)c(O)c(Br)c1,,"male Sprague-Dawley rat, whole blood","oral, 16.3 mg/kg",~3 h
CCN1CCN(c2ccc(Nc3cc(N(C)C(=O)Nc4c(Cl)c(OC)cc(OC)c4Cl)ncn3)cc2)CC1,,"Crl:WI(Han) rat, juvenile male, plasma","oral gavage, 0.1 mg/kg/day, postnatal day 17",3 h
O=C(O)Cc1ccccc1Nc1c(Cl)cccc1Cl,,"rat, plasma","oral, 10 mg/kg, added: sesamin 100 mg/kg",0.0683 ± 0.0317 h
COc1cccc(-c2n[nH]c(SCc3ccccn3)n2)c1OC,,"Sprague-Dawley rat, both sexes, plasma","oral, diet, 100 mg/kg/day, day 90",3 h
CC(C)=CCC[C@](C)(O[C@@H]1O[C@H](CO)[C@@H](O)[C@H](O)[C@H]1O)[C@H]1CC[C@]2(C)[C@@H]1[C@H](O)C[C@@H]1[C@@]3(C)CC[C@H](O[C@@H]4O[C@H](CO)[C@@H](O)[C@H](O)[C@H]4O[C@@H]4O[C@H](CO)[C@@H](O)[C@H](O)[C@H]4O)C(C)(C)[C@@H]3CC[C@]12C,,"Sprague Dawley rat, male, plasma","oral, 42 mg/kg, mixture of pure ginsenosides",0.25 ± 0.04 h
O=C(O)/C=C/c1ccc(O)c(O)c1,UPLC-MS/MS,"Wistar rat, microcirculation dysfunction model, plasma","oral, 100 mg/kg Salvia miltiorrhiza stem-leaf extract FS",0.74 ± 0.42 h
CC(C)(C)NC(=O)[C@@H]1C[C@@H]2CCCC[C@@H]2CN1C[C@@H](O)[C@H](Cc1ccccc1)NC(=O)[C@H](CC(N)=O)NC(=O)c1ccc2ccccc2n1,,"rat, plasma","oral, 30 mg/kg",~4 h
C=CC(=O)Nc1cc(Nc2nccc(-c3cn(C)c4ccccc34)n2)c(OC)cc1N(C)CCN(C)C,,"Sprague-Dawley rat, male, plasma","oral, 10 mg/kg",4.6 ± 2.41 h
CC(C)=CCC[C@](C)(O[C@@H]1O[C@H](CO)[C@@H](O)[C@H](O)[C@H]1O)[C@H]1CC[C@]2(C)[C@@H]1[C@H](O)C[C@@H]1[C@@]3(C)CC[C@H](O)C(C)(C)[C@@H]3[C@@H](O[C@@H]3O[C@H](CO)[C@@H](O)[C@H](O)[C@H]3O[C@@H]3O[C@@H](C)[C@H](O)[C@@H](O)[C@H]3O)C[C@]12C,,"Sprague Dawley rat, male, plasma","oral, 45 mg/kg, red ginseng extract",12 ± 2.1 h
CS(=O)(=O)c1ccc(-c2cnc(N)c(-c3ccc(C(F)(F)F)nc3)c2)cc1,,"Sprague-Dawley rat, pregnant female, plasma","oral, 30 mg/kg/day, gestation day 6",8 h
CCc1cc2c(cc1N1CCC(N3CCOCC3)CC1)C(C)(C)c1[nH]c3cc(C#N)ccc3c1C2=O,,"moderate hepatic impairment patients, plasma, total","oral, 300 mg single dose, fed, median",6 h
Cc1nc2cccc(OCC(C)(C)C(=O)NC(C)C)c2c(N)c1C(=O)O,,"female Sprague-Dawley rat, plasma","dietary, 30 mg/kg/day, day 7",0 h
CC(C)=CCC[C@](C)(O[C@@H]1O[C@H](CO)[C@@H](O)[C@H](O)[C@H]1O)[C@H]1CC[C@]2(C)[C@@H]1[C@H](O)C[C@@H]1[C@@]3(C)CC[C@H](O[C@@H]4O[C@H](CO)[C@@H](O)[C@H](O)[C@H]4O[C@@H]4O[C@H](CO)[C@@H](O)[C@H](O)[C@H]4O)C(C)(C)[C@@H]3CC[C@]12C,,"Sprague-Dawley rat, plasma","oral, 2000 mg/kg ginseng extract, control diet 2 weeks before dosing",11.2 ± 5.2 h
O=C(O)C[C@H](O)C[C@H](O)/C=C/c1c(C2CC2)nc2ccccc2c1-c1ccc(F)cc1,,"male Sprague Dawley rat, control, plasma","oral, 2.5 mg/kg, median, added: vehicle",0.83 h
Cn1nnc2c(C(N)=O)ncn2c1=O,,"male athymic rat, intracranial U87 glioma, tumour extracellular fluid","oral, 50 mg/kg, recovery-corrected microdialysis, median, added: before cediranib",1.5 h
O=C(/C=C/c1ccc(O)c(O)c1/C=C/c1ccc(O)c(O)c1)O[C@H](Cc1ccc(O)c(O)c1)C(=O)O,UPLC-MS/MS,"Wistar rat, microcirculation dysfunction model, plasma","oral, 100 mg/kg Salvia miltiorrhiza stem-leaf extract FT",0.83 ± 0.67 h
CC(C)=CCC[C@](C)(O[C@@H]1O[C@H](CO[C@@H]2O[C@H](CO)[C@@H](O)[C@H](O)[C@H]2O)[C@@H](O)[C@H](O)[C@H]1O)[C@H]1CC[C@]2(C)[C@@H]1[C@H](O)C[C@@H]1[C@@]3(C)CC[C@H](O[C@@H]4O[C@H](CO)[C@@H](O)[C@H](O)[C@H]4O[C@@H]4O[C@H](CO)[C@@H](O)[C@H](O)[C@H]4O)C(C)(C)[C@@H]3CC[C@]12C,,"Sprague Dawley rats, plasma","oral, 100 mg/kg, control group sterile water",4.4 ± 1.52 h
CC(C)=CCC[C@](C)(O[C@@H]1O[C@H](CO[C@@H]2O[C@H](CO)[C@@H](O)[C@H](O)[C@H]2O)[C@@H](O)[C@H](O)[C@H]1O)[C@H]1CC[C@]2(C)[C@@H]1[C@H](O)C[C@@H]1[C@@]3(C)CC[C@H](O[C@@H]4O[C@H](CO)[C@@H](O)[C@H](O)[C@H]4O[C@@H]4O[C@H](CO)[C@@H](O)[C@H](O)[C@H]4O)C(C)(C)[C@@H]3CC[C@]12C,,"Sprague Dawley rat, male, plasma","oral, 86 mg/kg, frozen ginseng extract",8 ± 1.2 h
CCCC[C@H](NC(C)=O)C(=O)N[C@H]1CCC(=O)NC[C@@H](C(=O)N[C@@H](Cc2c[nH]c3ccccc23)C(N)=O)NC(=O)[C@H](CCCNC(=N)N)NC(=O)[C@@H](Cc2ccccc2)NC(=O)[C@H](Cc2c[nH]cn2)NC1=O,,"CD Sprague Dawley rat, female, plasma","subcutaneous, 25.0 mg/kg daily, day 1",0.25 h

# Excerpt of the above:
Structure (SMILES),test,test system,conditions,Tmax
O=C(O)C[C@H](O)C[C@H](O)/C=C/c1c(C2CC2)nc2ccccc2c1-c1ccc(F)cc1,,"male Sprague Dawley rat, control, plasma","oral, 2.5 mg/kg, median, added: vehicle",0.83 h
Cn1nnc2c(C(N)=O)ncn2c1=O,,"male athymic rat, intracranial U87 glioma, tumour extracellular fluid","oral, 50 mg/kg, recovery-corrected microdialysis, median, added: before cediranib",1.5 h
O=C(/C=C/c1ccc(O)c(O)c1/C=C/c1ccc(O)c(O)c1)O[C@H](Cc1ccc(O)c(O)c1)C(=O)O,UPLC-MS/MS,"Wistar rat, microcirculation dysfunction model, plasma","oral, 100 mg/kg Salvia miltiorrhiza stem-leaf extract FT",0.83 ± 0.67 h
